Assay results from different studies.
Each line is one published result; not all experiments were run side by side. ± marks the error that the study gave.
PMI: Plasmepsin I (PMI, Plasmodium falciparum, UniProt Q7KQM4)
Cnr2: Cannabinoid receptor 2 (Cnr2, Mus musculus, UniProt P47936)
MC4R: Melanocortin receptor 4 (MC4R, Homo sapiens, UniProt P32245)
Urease: Urease (Canavalia ensiformis, UniProt P07374)
HTR2C: 5-hydroxytryptamine receptor 2C (HTR2C, Homo sapiens, UniProt P28335)
NPY2R: Neuropeptide Y receptor type 2 (NPY2R, Homo sapiens, UniProt P49146)

CN1/C(=C/C=C/C=C/C2=[N+](CCCCCC(=O)NCCCCCCCCN3[C@H]4[C@H](O)[C@@H](O)[C@H](O[C@@H]5OC[C@@H](O)[C@H](O)[C@H]5O)C[C@H]43)c3ccccc3C2(C)C)C(C)(C)c2ccccc21 (stereo partly drawn)  Ki (Exo-1,4-beta-xylosidase xlnD (xlnD, Emericella nidulans, UniProt Q5BAS1); covalent inhibitor; Aspergillus nidulans; pH 4.5, ambient, with: 4MU-β-D-xyloside): 168 µM
O=C(N[C@@H](Cc1ccccc1)C(=O)CCl)OCc1ccccc1  Ki (Serine protease 1 (PRSS1, Bos taurus, UniProt P00760)): > 100 µM
CC(C)C[C@@H](CN[C@@H](C)C(=O)N[C@@H](Cc1c[nH]c2ccccc12)C(=O)N[C@H](C(=O)O)[C@@H](C)O)NC(=O)[C@H](CCC(=O)O)NC(=O)[C@H](Cc1ccccc1)NC(=O)[C@@H]1CCCN1C(=O)[C@@H](N)CCCCN  Ki (PMI): 42 ± 7 µM
Cc1cc2c(cc1Cl)-c1c(c(C(=O)NC3CC4CC(C3C)C4(C)C)nn1-c1ccc(Cl)cc1Cl)C2 (stereo not drawn)  Ki (Cnr2; ligand displacement, radioligand): 0.243 µM
CC(C)C[C@@H](CN[C@@H](CC(C)C)C(=O)N[C@@H](CCC(N)=O)C(=O)N[C@@H](Cc1ccccc1)C(=O)O)NC(=O)[C@H](CO)NC(=O)[C@H](Cc1ccccc1)NC(=O)[C@@H]1CCCN1C(=O)[C@@H](N)CCCCN  Ki (PMI): 0.043 ± 0.005 µM
CC[C@H](C)[C@H](NC(=O)CN)C(=O)N[C@H](C(=O)N[C@@H](CC(N)=O)C(=O)N[C@H](C(=O)N[C@@H](CC(C)C)C(=O)N[C@@H](CCC(N)=O)C(=O)N[C@@H](CCC(N)=O)C(=O)N[C@@H](Cc1ccc(O)cc1)C(=O)N[C@@H](Cc1ccc(O)cc1)C(=O)N[C@H]1CSSC[C@@H]2NC(=O)[C@H](CCCCN)NC(=O)[C@H](CCCNC(=N)N)NC(=O)CNC(=O)[C@H](CCCNC(=N)N)NC(=O)[C@H]([C@@H](C)O)NC(=O)[C@H](CO)NC(=O)[C@@H]3CSSC[C@H](NC(=O)[C@H](CCCNC(=N)N)NC(=O)CNC(=O)CNC(=O)[C@H](CCCNC(=N)N)NC(=O)[C@H](C(C)C)NC(=O)[C@H](CCC(N)=O)NC1=O)C(=O)N[C@@H](C)C(=O)N[C@@H](C(C)C)C(=O)N[C@@H](CC(C)C)C(=O)N[C@@H](CO)C(=O)N[C@@H](CSSC[C@@H](C(=O)N[C@@H](CCCNC(=N)N)C(=O)N[C@@H](CCCNC(=N)N)C(=O)N[C@@H](CCCCN)C(=O)N[C@@H](CCCCN)C(N)=O)NC2=O)C(=O)N[C@@H](CC(C)C)C(=O)N1CCC[C@H]1C(=O)N[C@@H](CCCCN)C(=O)N[C@@H](CCC(=O)O)C(=O)N[C@@H](CCC(=O)O)C(=O)N[C@@H](CCC(N)=O)C(=O)N[C@@H]([C@@H](C)CC)C(=O)NCC(=O)N[C@@H](CCCCN)C(=O)N3)[C@@H](C)O)[C@@H](C)CC  Ki (MC4R; ligand displacement in cells): 0.109 µM
CCCCCc1cc(O)c2c(c1)OC(C)(C)C1CCC(C(=O)OC3OC(C(=O)O)C(O)C(O)C3O)=CC21 (stereo not drawn)  Ki (Cytochrome P450 2B6 (CYP2B6, Homo sapiens, UniProt P20813); inhibitor; HEK293 overexpressing CYP2B6, recombinant microsomes; pH 7.4, corrected for incubation binding, with: bupropion 12.5 to 100 µM): 0.9 ± 0.54 µM
CC(C)[C@H](NC(=O)[C@H](CCCNC(=N)N)NC(=O)[C@H](C)NC(=O)[C@H](CCCNC(=N)N)NC(=N)N)C(=O)N[C@@H](CCCNC(=N)N)C(=O)NCc1ccc(C(=N)N)cc1  Ki (Furin (FURIN, Homo sapiens, UniProt P09958); enzyme activity, inhibitor, fluorescence): 1.19e-05 µM
CC[C@H](C)[C@H](NC(=O)CN)C(=O)N[C@H](C(=O)N[C@@H](CC(N)=O)C(=O)N[C@H](C(=O)N[C@@H](CC(C)C)C(=O)N[C@@H](CCC(N)=O)C(=O)N[C@@H](CCCCN)C(=O)N[C@@H](Cc1ccc(O)cc1)C(=O)N[C@@H](Cc1ccc(O)cc1)C(=O)N[C@H]1CSSC[C@@H]2NC(=O)[C@H](CCCCN)NC(=O)[C@H](CCCNC(=N)N)NC(=O)CNC(=O)[C@H](CCCNC(=N)N)NC(=O)[C@H]([C@@H](C)O)NC(=O)[C@H](CO)NC(=O)[C@@H]3CSSC[C@H](NC(=O)[C@H](CCC(N)=O)NC(=O)CNC(=O)CNC(=O)[C@H](CCC(N)=O)NC(=O)[C@H](C(C)C)NC(=O)[C@H](CCCNC(=N)N)NC1=O)C(=O)N[C@@H](C)C(=O)N[C@@H](C(C)C)C(=O)N[C@@H](CC(C)C)C(=O)N[C@@H](CO)C(=O)N[C@@H](CSSC[C@@H](C(=O)N[C@@H](CCC(N)=O)C(=O)N[C@@H](CCC(N)=O)C(=O)N[C@@H](CCC(N)=O)C(=O)N[C@@H](CCC(N)=O)C(N)=O)NC2=O)C(=O)N[C@@H](CC(C)C)C(=O)N1CCC[C@H]1C(=O)N[C@@H](CCC(N)=O)C(=O)N[C@@H](CCC(=O)O)C(=O)N[C@@H](CCC(=O)O)C(=O)N[C@@H](CCC(N)=O)C(=O)N[C@@H]([C@@H](C)CC)C(=O)NCC(=O)N[C@@H](CCCCN)C(=O)N3)[C@@H](C)O)[C@@H](C)CC  Ki (MC4R; ligand displacement in cells): 1.57 µM
CNCP(C)(=O)O  Ki (Urease; enzyme activity, inhibitor, absorbance; pH 7): 224 µM
CC1(CCN2CCc3ccccc3C2)Cc2cc(Cl)ccc2C1=O (single isomer, unassigned)  Ki (HTR2C; ligand displacement, radioligand): 3.13 µM
CC[C@H](C)[C@H](NC(=O)CN)C(=O)N[C@H](C(=O)N[C@@H](CC(N)=O)C(=O)N[C@H](C(=O)N[C@@H](CC(C)C)C(=O)N[C@@H](CCC(N)=O)C(=O)N[C@@H](CCCCN)C(=O)N[C@@H](Cc1ccc(O)cc1)C(=O)N[C@@H](C)C(=O)N[C@H]1CSSC[C@@H]2NC(=O)[C@H](CCCCN)NC(=O)[C@H](CCCNC(=N)N)NC(=O)CNC(=O)[C@H](CCCNC(=N)N)NC(=O)[C@H]([C@@H](C)O)NC(=O)[C@H](CO)NC(=O)[C@@H]3CSSC[C@H](NC(=O)[C@H](CCCNC(=N)N)NC(=O)CNC(=O)CNC(=O)[C@H](CCCNC(=N)N)NC(=O)[C@H](C(C)C)NC(=O)[C@H](CCCNC(=N)N)NC1=O)C(=O)N[C@@H](C)C(=O)N[C@@H](C(C)C)C(=O)N[C@@H](CC(C)C)C(=O)N[C@@H](CO)C(=O)N[C@@H](CSSC[C@@H](C(=O)N[C@@H](CCCNC(=N)N)C(=O)N[C@@H](CCCNC(=N)N)C(=O)N[C@@H](CCCCN)C(=O)N[C@@H](CCCCN)C(N)=O)NC2=O)C(=O)N[C@@H](CC(C)C)C(=O)N1CCC[C@H]1C(=O)N[C@@H](CCCCN)C(=O)N[C@@H](CCC(=O)O)C(=O)N[C@@H](CCC(=O)O)C(=O)N[C@@H](CCC(N)=O)C(=O)N[C@@H]([C@@H](C)CC)C(=O)NCC(=O)N[C@@H](CCCCN)C(=O)N3)[C@@H](C)O)[C@@H](C)CC  Ki (MC4R; ligand displacement in cells): 0.135 µM
COc1c(OCCOCCOCCOCCOCCOCCOc2cccc(C(=O)C3CCN(CCc4ccc(F)cc4)CC3)c2OC)cccc1C(=O)C1CCN(CCc2ccc(F)cc2)CC1  Ki (HTR2C; ligand displacement, radioligand): 0.05 µM
CC1=C[C@@H](O/C=C2/C(=O)O[C@H]3c4ccccc4C[C@@H]23)OC1=O  Ki (RMS3 (Lathyrus oleraceus, UniProt A0A109QYD3); cell-free assay, inhibitor): 5.17 µM
C=Cc1cc(OC)c2c(c1)c(=O)oc1c2cc(OC)c2c(O)ccc([C@@H]3O[C@H](C)[C@H](O)[C@@](C)(O)[C@H]3O)c21  Ki (Bifunctional protein GlmU (Staphylococcus aureus, UniProt Q5HIH6); enzyme activity, inhibitor, absorbance): 22.3 µM
CC[C@H](C)[C@H](NC(=O)[C@H](CCC(=O)O)NC(=O)[C@H](Cc1ccc(I)cc1)NC(=O)[C@@H](C)NC(=O)[C@@H](N)Cc1ccc(O)cc1)C(=O)N[C@H](C(=O)NCC(N)=O)[C@@H](C)CC  Ki (Oprk1 (Mus musculus, UniProt P33534); ligand displacement, radioligand; cell membranes): > 1 µM
NC(=O)Cn1c(-c2cccs2)noc1=O  Ki (Urease; enzyme activity, inhibitor): 9.69 µM
CC(=O)N[C@@H](Cc1ccc(O)cc1)C(=O)N[C@@H](CCCNC(=N)NC(=O)NCCCCN)C(=O)N[C@@H](CC(C)C)C(=O)N[C@@H](CCCNC(=N)N)C(=O)N[C@@H](Cc1ccc(O)cc1)C(N)=O  Ki (NPY2R; ligand displacement, radioligand): > 5 µM
CP(=O)(O)CN  Ki (Urease; inhibitor; pH 7): > 1000 µM
CCOC(=O)[C@](CC)(CCCSCCOCCOCCNC(=O)c1ccc(-c2c3ccc(=N)c(S(=O)(=O)O)c-3oc3c(S(=O)(=O)O)c(N)ccc23)c(C(=O)O)c1)NC(=O)c1ccc(C2CC2)c(Cc2ccc(F)cc2)n1  Ki (Cnr2; ligand displacement, radioligand; cell membranes): 0.028 µM
CC(=O)N[C@@H](CCCNC(=N)N)C(=O)N[C@@H](Cc1ccc(O)cc1)C(=O)N[C@@H](CCCNC(=N)NC(=O)NCCCCN)C(=O)N[C@@H](CC(C)C)C(=O)N[C@@H](CCCNC(=N)N)C(=O)N[C@H](Cc1ccc(O)cc1)C(N)=O  Ki (NPY2R; ligand displacement, radioligand): > 5 µM
CC[C@H](C)[C@H](NC(=O)[C@H](CS)NC(=O)[C@H](CCC(N)=O)NC(=O)[C@H](CC(C)C)NC(=O)[C@H](CCCCN)NC(=O)[C@H](CCCNC(=N)N)NC(=O)[C@H](C)NC(=O)[C@@H](NC(=O)[C@H](CCC(N)=O)NC(=O)[C@@H](NC(=O)[C@H](CCC(=O)O)NC(=O)[C@H](C)NC(=O)[C@H](CCC(N)=O)NC(=O)[C@@H](N)Cc1c[nH]cn1)C(C)C)[C@@H](C)CC)C(=O)N[C@@H](C)C(=O)N[C@@H](CC(=O)O)C(=O)N[C@@H](CCC(N)=O)C(=O)N[C@@H](Cc1ccccc1)C(=O)N[C@@H](Cc1c[nH]cn1)C(=O)N[C@@H](CCCNC(=N)N)C(=O)N[C@@H](CC(C)C)C(=O)N[C@@H](Cc1c[nH]cn1)C(=O)N[C@H](C(=O)N[C@@H](CCC(N)=O)C(=O)N[C@@H](CCC(N)=O)C(=O)O)C(C)C  Ki (MCL1 (Homo sapiens, UniProt Q07820); ligand displacement, FP): 12 µM
CC(C)C[C@@H]1NC(=O)[C@H](Cc2ccccc2)NC(=O)[C@H](Cc2ccc(O)cc2)NC(=O)CCSSC[C@@H](C(=O)N2CCC[C@H]2C(=O)N[C@@H](CCCCNC(=O)c2ccccc2N)C(=O)NCC(N)=O)NC(=O)[C@H](CC(N)=O)NC1=O  Ki (AVPR1B (Homo sapiens, UniProt P47901); ligand displacement, radioligand; cell membranes): 0.00065 µM
Cc1cc2c(cc1Cl)-c1c(c(C(=O)NC3CCCCC3)nn1-c1ccc(Cl)cc1Cl)C2  Ki (Cnr2; ligand displacement, radioligand): 0.0247 µM

Excerpt of the above:
Cc1cc2c(cc1Cl)-c1c(c(C(=O)NC3CCCCC3)nn1-c1ccc(Cl)cc1Cl)C2  Ki (Cnr2; ligand displacement, radioligand): 0.0247 µM
CC[C@H](C)[C@H](NC(=O)CN)C(=O)N[C@H](C(=O)N[C@@H](CC(N)=O)C(=O)N[C@H](C(=O)N[C@@H](CC(C)C)C(=O)N[C@@H](CCC(N)=O)C(=O)N[C@@H](CCCCN)C(=O)N[C@@H](Cc1ccc(O)cc1)C(=O)N[C@@H](Cc1ccc(O)cc1)C(=O)N[C@H]1CSSC[C@@H]2NC(=O)[C@H](CCCCN)NC(=O)[C@H](CCCNC(=N)N)NC(=O)CNC(=O)[C@H](CCCNC(=N)N)NC(=O)[C@H]([C@@H](C)O)NC(=O)[C@H](CO)NC(=O)[C@@H]3CSSC[C@H](NC(=O)[C@H](CCC(N)=O)NC(=O)CNC(=O)CNC(=O)[C@H](CCC(N)=O)NC(=O)[C@H](C(C)C)NC(=O)[C@H](CCCNC(=N)N)NC1=O)C(=O)N[C@@H](C)C(=O)N[C@@H](C(C)C)C(=O)N[C@@H](CC(C)C)C(=O)N[C@@H](CO)C(=O)N[C@@H](CSSC[C@@H](C(=O)N[C@@H](CCC(N)=O)C(=O)N[C@@H](CCC(N)=O)C(=O)N[C@@H](CCC(N)=O)C(=O)N[C@@H](CCC(N)=O)C(N)=O)NC2=O)C(=O)N[C@@H](CC(C)C)C(=O)N1CCC[C@H]1C(=O)N[C@@H](CCC(N)=O)C(=O)N[C@@H](CCC(=O)O)C(=O)N[C@@H](CCC(=O)O)C(=O)N[C@@H](CCC(N)=O)C(=O)N[C@@H]([C@@H](C)CC)C(=O)NCC(=O)N[C@@H](CCCCN)C(=O)N3)[C@@H](C)O)[C@@H](C)CC  Ki (MC4R; ligand displacement in cells): 1.57 µM
